# Measurements pooled from the literature.
# Each numbered part is a random draw from the data of one study; scales do not carry over between parts.

# Study 1
# Target: Histone acetyltransferase KAT6A, winged helix 2, GST fusion (KAT6A, Homo sapiens, UniProt Q92794, residues 85-181)
# Method: protein binding microarray
# Molecule type: double-stranded DNA, one strand shown
# Medium: in vitro
# Tested at: not given
# Setting: 8-mer, flanks averaged, mean of 2 arrays, mostly near background
# Baseline: not given
# Reading: higher = stronger binding
# Construct (chain): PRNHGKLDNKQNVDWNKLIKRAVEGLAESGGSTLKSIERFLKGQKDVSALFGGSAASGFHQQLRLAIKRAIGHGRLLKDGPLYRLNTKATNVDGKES
Sequence,E-score
AACTATCA,-0.0451
CAGGGTAA,-0.0615
AGATCGGA,0.153
AACGAGCT,0.0523
ATCGATAC,-0.135
CCGGCGAC,-0.0296
ACTCTCCC,0.00778
CCTGCGGA,0.167
AGACCGCG,0.215
TCTATACA,-0.159
GGACTCGA,-0.238
TATTCTGA,-0.196
AGTGACAG,0.0737
CCATAGGC,0.0313
GTAACAAA,0.119
ACTCTTAC,-0.0136
GGCAGCGA,0.0506
AAGGGTAG,-0.222
CCCAATAC,0.0754
GGATTTTA,-0.0417
CTGGTTAC,-0.175
GGAGACCC,-0.127
CGTACCAG,0.0312
CCGTTCCG,0.0985
CTTTGTCA,0.0757

# Study 2
# Target: Centromere-binding protein 1, full length, His-tagged (CBF1, Saccharomyces cerevisiae, UniProt P17106, residues 1-351)
# Sequence of UniProt P17106 (whole entry, looked up): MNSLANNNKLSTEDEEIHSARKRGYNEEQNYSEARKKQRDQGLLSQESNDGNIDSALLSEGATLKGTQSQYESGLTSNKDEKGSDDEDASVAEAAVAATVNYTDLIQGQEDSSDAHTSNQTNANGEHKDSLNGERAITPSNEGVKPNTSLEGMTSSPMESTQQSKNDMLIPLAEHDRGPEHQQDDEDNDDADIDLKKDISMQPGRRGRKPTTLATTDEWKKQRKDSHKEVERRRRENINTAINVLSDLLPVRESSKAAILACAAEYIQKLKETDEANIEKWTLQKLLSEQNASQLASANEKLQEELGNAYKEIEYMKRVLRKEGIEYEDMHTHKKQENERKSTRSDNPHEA
# Method: competition protein-binding microarray
# Molecule type: double-stranded DNA, one strand shown
# Medium: in vitro
# Tested at: 2 µM
# Setting: whole 60-bp probe, lowest competitor level
# Added: Pho4 competitor, 0.05 µM
# Reading: higher = stronger binding
Sequence,fluorescence intensity [a.u.]
TGGTCTTGGCCTTGACCGGTGATACGCGTCTTGTGCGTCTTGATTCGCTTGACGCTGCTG,54.9
AAATTACTAAGTTGTCACATGACTTACCCCGTATGAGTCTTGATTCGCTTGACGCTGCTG,3200
TGTTCTTCGTAGAAATGCATGCAGAAAAATTTTGATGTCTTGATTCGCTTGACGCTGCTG,120
GTCTTGTCTCATTGTATCGTGGGTGTCCCCACTTCAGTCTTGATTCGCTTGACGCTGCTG,79.7
AAAGCGGTAATTTGTCACCGGACTTCACATATCTATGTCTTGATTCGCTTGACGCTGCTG,104
ACCGGCAAAATACTACACGTGCCAGTACGGCACCAAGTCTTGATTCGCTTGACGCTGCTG,1600
ATTCACTTGTGCGGCCACGTGCGGATGAATAATAAAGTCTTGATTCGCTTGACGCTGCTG,1520
TGTGTCATCTTCGCGCGCGTGCTAAAAAAAACGAATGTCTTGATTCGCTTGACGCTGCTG,163
CTGTCCATAACTTCTCTCGTGACTCGGCCAAGGATGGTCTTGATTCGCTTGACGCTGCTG,395
GCCGCCGCTTCTCCACACGTGCACTCGGGTCTCTCGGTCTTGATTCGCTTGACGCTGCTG,557
TGCAGCATCCAGCTTCCCGTGTATCCATACCACCCTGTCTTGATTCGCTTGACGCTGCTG,91.8
CGTCCTAGTGATTGTGACGTGGGTGCCATGAGGAAGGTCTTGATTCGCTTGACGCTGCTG,80.6
CATACCCAACCTTGTCACGTAACTTAAGATATTTGTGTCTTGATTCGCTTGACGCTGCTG,134
GATATCGTTCAAATGCTCGTGCTTTAACCTTAATACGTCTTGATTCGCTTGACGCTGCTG,123
TGCGCAACAACTTGAGGCGTGGGTGTATGTCTAGAAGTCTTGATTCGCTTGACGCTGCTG,67.8
CAGGAAAAGTCTTTGGTGTTTCCTTCTTTGTACATTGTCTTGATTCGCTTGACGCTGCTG,76.6
CTAACGAAGGTTTGCTCTGTGGGTGACAAGCCAAGTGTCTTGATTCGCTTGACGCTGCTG,69.3
CTTCTGTAAATTTGAAAAGTGGGTGGACGCGCCCCGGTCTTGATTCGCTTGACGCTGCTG,101
ATTCACCAATTCCGTCACACTCAGCTAACTTCTCCTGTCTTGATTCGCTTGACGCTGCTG,71.7
CTTTCCCGATCTTGTTGTGTGGGTGTAGCACATTTGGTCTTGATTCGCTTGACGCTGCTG,91
CAGTCTGATTGCCATCACGTGATGGTAACGTAAGTCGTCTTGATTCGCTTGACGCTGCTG,10500
TCTCCATGGCTGAGACTTGTGTGTATCTCACAGTGGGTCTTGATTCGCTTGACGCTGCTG,59.7
TCACCGGGTGCCGGCCACGCAATATATAAAACGGTAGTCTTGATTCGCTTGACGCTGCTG,69

# Study 3
# Target: Probable WRKY transcription factor 33, C-terminal DNA-binding domain (WRKY33, Arabidopsis thaliana, UniProt Q8S8P5, residues 346-449)
# Method: DNA-protein interaction ELISA
# Molecule type: double-stranded DNA, one strand shown
# Medium: in vitro, bacterial lysate
# Tested at: not given
# Setting: whole dsDNA probe, crude lysate protein
# Baseline: highest signal in screen
# Reading: higher = stronger binding
# Residues (chain): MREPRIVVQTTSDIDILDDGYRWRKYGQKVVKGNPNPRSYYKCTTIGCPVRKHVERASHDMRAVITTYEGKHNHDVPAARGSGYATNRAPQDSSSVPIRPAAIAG
Sequence,relative absorbance
AAAAAATATATTTTCAGCTTTAATCTAAAA,40.8 % of maximum
AAAAAAGAAATACCAGAAACTATCATAAAA,59.9 % of maximum
AAAAAATTTGTACTTTAAGTTTACATAAAA,32.8 % of maximum
AAAAAATGTGGTTACGGCCTCGATGAAAAA,36.8 % of maximum
AAAAAATTACTATTACACACTTGGGGAAAA,30.5 % of maximum
AAAAAAAGTAGTTACTGCGAAAGTCTAAAA,35.3 % of maximum
AAAAAAGCCCCTTGCGCCTCTCTACCAAAA,27.3 % of maximum
AAAAAACTAGGTATCGGTAGGCGCCGAAAA,34.1 % of maximum
AAAAAATTCTTACTTTTGTCTTTACTAAAA,57.5 % of maximum
AAAAAATTAGTCCTGATTCAATCTTCAAAA,66.2 % of maximum
AAAAAATCTTCTTGTTTCTTATTTCTAAAA,33.8 % of maximum
AAAAAATGCCCATGTGCACCCGTACGAAAA,35 % of maximum
AAAAAAGCTTCGCGCCAGCGGGAAAA,43.6 % of maximum
AAAAAATATCGGGCACGGTCTTGTCTAAAA,49.8 % of maximum
AAAAAAACCCTGTGTCGGCCGATAAAAAA,29.1 % of maximum
AAAAAACCAACTCTCTTTCGGACTATAAAA,53.8 % of maximum
AAAAAACGTTAACACTGATTTAGGGTAAAA,24.6 % of maximum
AAAAAAGTTCGTGCTTAACCCAGTTTAAAA,41.1 % of maximum
AAAAAAAAGAGCCTGGGGGTTCGCATAAAA,31 % of maximum
AAAAAATAGCGACTTCGACTCTCAGTAAAA,42.8 % of maximum
AAAAAATTTGTTCGGGCTCATAACTGAAAA,31.2 % of maximum
AAAAAACTGCTAATCGGTGACCCGATAAAA,49 % of maximum
AAAAAATTCCGGCTTGACGCTGCATAAAAA,32.1 % of maximum
AAAAAAGGACGTCTTCGGTATGAGTGAAAA,77.9 % of maximum

# Study 4
# Target: Prothrombin, mature alpha-thrombin (F2, Homo sapiens, UniProt P00734)
# Method: aptamer microarray, sandwich
# Molecule type: DNA with 2'F-ANA
# Medium: in vitro
# Tested at: 200 nM
# Setting: whole 15-mer aptamer, many near background
# Added: Cy3 exosite-II aptamer, 400 nM
# Reading: higher = stronger binding
# Sequence: GGTTGGTGTGGTTGG
Modification,mean fluorescence intensity
2'F-ANA at 2 5 7 13 14,44.4 a.u.
2'F-ANA at 1 2 4 5 6 10 11 12 13 15,53 a.u.
2'F-ANA at 1 2 4 5 6 8 11 13,111 a.u.
2'F-ANA at 4 5 6 7 9 11 13 14,44 a.u.
2'F-ANA at 1 3 4 5 8 10 11 14 15,47.8 a.u.
2'F-ANA at 1 2 3 7 9 11 12 13,296 a.u.
2'F-ANA at 1 2 5 6 8 9 11 14 15,57.2 a.u.
2'F-ANA at 1 2 6 8 11 15,151 a.u.
2'F-ANA at 1 2 3 4 5 6 13 14,49 a.u.
2'F-ANA at 1 2 3 4 5 10 11 13 15,49.5 a.u.
2'F-ANA at 1 2 3 4 5 10 11 14 15,94.2 a.u.
2'F-ANA at 2 3 4 9 10 11 13 15,256 a.u.
2'F-ANA at 4 5 7 8 11 14,54.1 a.u.
2'F-ANA at 1 2 3 4 8 9 10 12 13 14 15,146 a.u.
2'F-ANA at 3 6 9 15,888 a.u.
2'F-ANA at 1 3 5 6 8 9 11 15,60.2 a.u.
2'F-ANA at 1 3 4 7 12 14 15,114 a.u.
2'F-ANA at 2 4 6 7 8 10 11 12,112 a.u.
2'F-ANA at 3 4 5 8 9 10 11 12 13,53.9 a.u.
2'F-ANA at 1 2 8 9 11 12 13,237 a.u.
2'F-ANA at 1 5 6 8 10 13 14,47.3 a.u.
2'F-ANA at 1 2 4 5 6 7 8 10 11 12 14,66.3 a.u.
2'F-ANA at 1 4 5 6 8 9 10 11 12 13 14 15,59.1 a.u.
2'F-ANA at 2 5 6 8 10 11 13 14 15,52 a.u.

# Study 5
# Target: Sal-like protein 4, full length isoform B (SALL4, Homo sapiens, UniProt Q9UJQ4-2, residues 1-616)
# Method: universal PBM
# Molecule type: double-stranded DNA, one strand shown
# Medium: in vitro
# Tested at: not given
# Setting: 8-mer, flanks averaged, mean of replicates
# Reading: higher = stronger binding
Sequence,E-score
CACCTCAG,-0.155
GCTCCACC,-0.304
CAGGCCCG,-0.317
ACTAAAGG,0.0964
AGGCCCAT,-0.271
CCTTCCTC,-0.157
AACCGGTC,-0.108
CCTCCGGA,-0.295
CTGAGGAC,-0.0711
AGAGCTAC,-0.0227
CCTTTAGA,0.0691
AAAGAAGC,0.0381
ACATCTCT,-0.0005
GAAGACAC,-0.0627
GGCCATTA,-0.0203
CTTACCTC,-0.16
